{"data": "Experimental data pooled from the literature", "target": "5-hydroxytryptamine receptor 2A (HTR2A, Homo sapiens, UniProt P28223)", "note": "Protocols differ between the studies behind these lines.", "UniProt P28223, sequence (whole entry, looked up)": "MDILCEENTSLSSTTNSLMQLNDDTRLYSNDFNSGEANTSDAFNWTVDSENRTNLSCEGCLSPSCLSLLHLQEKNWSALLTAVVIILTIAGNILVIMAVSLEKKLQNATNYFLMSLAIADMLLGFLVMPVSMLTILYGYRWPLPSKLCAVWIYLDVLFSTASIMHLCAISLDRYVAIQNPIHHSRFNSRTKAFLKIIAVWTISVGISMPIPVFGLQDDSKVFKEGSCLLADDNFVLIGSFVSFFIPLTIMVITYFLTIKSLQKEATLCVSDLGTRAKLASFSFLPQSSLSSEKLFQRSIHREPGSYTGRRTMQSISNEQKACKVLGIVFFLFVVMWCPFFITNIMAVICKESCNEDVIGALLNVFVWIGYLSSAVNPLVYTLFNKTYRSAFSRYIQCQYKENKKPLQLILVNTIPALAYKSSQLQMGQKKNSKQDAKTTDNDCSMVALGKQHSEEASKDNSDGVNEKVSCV"}
{"SMILES": "COc1cc2c(cc1O)C(CCc1ccc(Cl)cc1)N(C)CC2 (centres unmarked)", "read-out": "cell-free assay", "method": "radioligand", "endpoint": "Ki", "value": "880 nM"}
{"SMILES": "O=C(O)CCn1c(=O)oc2cc(Cl)c(Cl)cc21", "mode": "agonist", "endpoint": "EC50", "value": "> 25100 nM"}
{"SMILES": "C[C@@H](Cc1ccsc1)NC(=O)NC[C@H](Cc1ccc(O)cc1)N(C)C", "read-out": "cell-free assay", "endpoint": "Ki", "value": "580 nM"}
{"SMILES": "COc1c(O)cc2c3c1-c1ccccc1CC3N(C)CC2 (centres unmarked)", "read-out": "ligand displacement", "method": "radioligand", "notes": "cell membranes", "endpoint": "Ki", "value": "60 nM"}
{"SMILES": "O=C1c2ccccc2CCCN1CCCCN1CCN(c2cccc(Cl)c2Cl)CC1", "read-out": "ligand displacement", "method": "radioligand", "endpoint": "Ki", "value": "24 nM"}
{"SMILES": "O[C@H]1[C@H](n2cnc3c(N[C@@H](C4CCC4)C4CC4)nc(I)nc32)[C@H]2C[C@@]2(C(F)F)[C@H]1O", "read-out": "calcium signal", "mode": "antagonist", "endpoint": "Kb", "value": "> 10000 nM"}
{"SMILES": "CCN(CC)C(=O)[C@@H]1C=C2c3cccc4c3c(cn4C(=O)c3ccco3)C[C@H]2N(C)C1", "read-out": "ligand displacement", "method": "radioligand", "endpoint": "Ki", "value": "225 nM"}
{"SMILES": "C/C(=N\\OCCCN1CCCCC1)c1ccc(C(F)(F)F)cc1", "read-out": "inositol phosphate", "mode": "antagonist", "endpoint": "IC50", "value": "1620 nM"}
{"note": "For quick reference, copied from above:"}
{"SMILES": "O[C@H]1[C@H](n2cnc3c(N[C@@H](C4CCC4)C4CC4)nc(I)nc32)[C@H]2C[C@@]2(C(F)F)[C@H]1O", "read-out": "calcium signal", "mode": "antagonist", "endpoint": "Kb", "value": "> 10000 nM"}
